Published values pooled from the literature.
Compare with care: the assays were run in different laboratories. ± marks the error that the study gave.
Chain of UniProt Q5VWZ2 (whole entry, looked up): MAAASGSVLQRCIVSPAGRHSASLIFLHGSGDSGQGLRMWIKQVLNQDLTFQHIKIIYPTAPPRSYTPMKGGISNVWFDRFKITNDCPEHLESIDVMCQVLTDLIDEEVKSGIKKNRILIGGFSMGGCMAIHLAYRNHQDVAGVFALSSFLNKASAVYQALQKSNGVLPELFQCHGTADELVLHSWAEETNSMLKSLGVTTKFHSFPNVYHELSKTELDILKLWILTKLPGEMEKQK
Chain of UniProt Q05397 (whole entry, looked up): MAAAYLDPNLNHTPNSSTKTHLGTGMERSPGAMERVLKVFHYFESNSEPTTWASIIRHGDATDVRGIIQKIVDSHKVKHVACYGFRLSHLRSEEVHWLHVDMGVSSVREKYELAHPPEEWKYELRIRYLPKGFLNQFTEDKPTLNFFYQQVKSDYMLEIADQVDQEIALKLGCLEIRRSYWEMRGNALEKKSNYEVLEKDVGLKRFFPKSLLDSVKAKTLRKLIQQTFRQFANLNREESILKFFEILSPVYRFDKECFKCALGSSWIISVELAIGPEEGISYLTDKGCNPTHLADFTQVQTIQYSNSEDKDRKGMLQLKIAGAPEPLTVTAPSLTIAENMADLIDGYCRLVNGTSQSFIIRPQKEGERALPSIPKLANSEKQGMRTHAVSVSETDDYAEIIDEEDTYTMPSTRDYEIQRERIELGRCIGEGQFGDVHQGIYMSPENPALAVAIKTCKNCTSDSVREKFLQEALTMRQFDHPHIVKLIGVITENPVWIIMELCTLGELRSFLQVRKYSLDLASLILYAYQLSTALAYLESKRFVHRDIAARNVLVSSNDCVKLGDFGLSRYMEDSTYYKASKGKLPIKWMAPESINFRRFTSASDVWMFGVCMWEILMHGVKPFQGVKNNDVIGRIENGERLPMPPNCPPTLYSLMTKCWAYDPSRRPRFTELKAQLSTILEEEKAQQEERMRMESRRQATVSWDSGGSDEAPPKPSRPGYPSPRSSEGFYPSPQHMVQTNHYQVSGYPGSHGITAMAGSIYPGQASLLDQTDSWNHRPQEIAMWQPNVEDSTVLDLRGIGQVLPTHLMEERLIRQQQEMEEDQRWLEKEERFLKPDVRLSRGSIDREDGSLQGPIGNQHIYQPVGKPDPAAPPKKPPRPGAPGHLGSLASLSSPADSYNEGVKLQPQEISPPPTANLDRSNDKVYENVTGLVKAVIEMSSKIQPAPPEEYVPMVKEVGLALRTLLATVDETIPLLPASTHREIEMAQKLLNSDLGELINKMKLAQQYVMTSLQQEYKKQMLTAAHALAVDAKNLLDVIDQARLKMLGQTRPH
Chain of UniProt P04150 (whole entry, looked up): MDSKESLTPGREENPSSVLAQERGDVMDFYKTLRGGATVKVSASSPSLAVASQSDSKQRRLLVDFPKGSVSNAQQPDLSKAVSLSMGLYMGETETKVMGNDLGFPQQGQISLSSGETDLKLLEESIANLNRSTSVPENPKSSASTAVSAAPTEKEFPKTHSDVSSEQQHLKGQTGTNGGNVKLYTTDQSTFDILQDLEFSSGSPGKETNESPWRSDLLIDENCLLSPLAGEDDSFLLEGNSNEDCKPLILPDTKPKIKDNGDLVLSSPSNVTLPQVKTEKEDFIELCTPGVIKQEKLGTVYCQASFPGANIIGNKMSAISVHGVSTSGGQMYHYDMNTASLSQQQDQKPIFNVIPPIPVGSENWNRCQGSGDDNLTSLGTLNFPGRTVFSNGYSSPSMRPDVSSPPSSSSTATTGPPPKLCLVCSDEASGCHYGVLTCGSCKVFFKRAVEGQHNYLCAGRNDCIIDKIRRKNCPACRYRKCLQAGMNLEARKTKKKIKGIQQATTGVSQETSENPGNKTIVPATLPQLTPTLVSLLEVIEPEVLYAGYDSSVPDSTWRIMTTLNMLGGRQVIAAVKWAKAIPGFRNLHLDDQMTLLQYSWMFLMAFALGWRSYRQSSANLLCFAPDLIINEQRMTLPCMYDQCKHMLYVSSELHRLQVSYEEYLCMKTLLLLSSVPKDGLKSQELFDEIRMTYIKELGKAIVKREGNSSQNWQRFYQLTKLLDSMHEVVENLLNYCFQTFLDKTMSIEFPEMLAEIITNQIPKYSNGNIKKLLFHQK
Chain of UniProt Q96CH1 (whole entry, looked up): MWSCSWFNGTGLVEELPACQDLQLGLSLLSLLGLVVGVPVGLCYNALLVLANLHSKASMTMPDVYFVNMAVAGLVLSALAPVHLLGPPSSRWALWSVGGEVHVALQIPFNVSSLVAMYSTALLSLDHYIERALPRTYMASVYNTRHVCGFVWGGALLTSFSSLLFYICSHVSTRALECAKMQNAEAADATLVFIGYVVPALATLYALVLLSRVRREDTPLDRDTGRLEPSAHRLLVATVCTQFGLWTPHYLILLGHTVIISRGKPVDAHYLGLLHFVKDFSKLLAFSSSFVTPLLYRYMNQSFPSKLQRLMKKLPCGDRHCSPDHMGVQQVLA
Chain of UniProt Q05655 (whole entry, looked up): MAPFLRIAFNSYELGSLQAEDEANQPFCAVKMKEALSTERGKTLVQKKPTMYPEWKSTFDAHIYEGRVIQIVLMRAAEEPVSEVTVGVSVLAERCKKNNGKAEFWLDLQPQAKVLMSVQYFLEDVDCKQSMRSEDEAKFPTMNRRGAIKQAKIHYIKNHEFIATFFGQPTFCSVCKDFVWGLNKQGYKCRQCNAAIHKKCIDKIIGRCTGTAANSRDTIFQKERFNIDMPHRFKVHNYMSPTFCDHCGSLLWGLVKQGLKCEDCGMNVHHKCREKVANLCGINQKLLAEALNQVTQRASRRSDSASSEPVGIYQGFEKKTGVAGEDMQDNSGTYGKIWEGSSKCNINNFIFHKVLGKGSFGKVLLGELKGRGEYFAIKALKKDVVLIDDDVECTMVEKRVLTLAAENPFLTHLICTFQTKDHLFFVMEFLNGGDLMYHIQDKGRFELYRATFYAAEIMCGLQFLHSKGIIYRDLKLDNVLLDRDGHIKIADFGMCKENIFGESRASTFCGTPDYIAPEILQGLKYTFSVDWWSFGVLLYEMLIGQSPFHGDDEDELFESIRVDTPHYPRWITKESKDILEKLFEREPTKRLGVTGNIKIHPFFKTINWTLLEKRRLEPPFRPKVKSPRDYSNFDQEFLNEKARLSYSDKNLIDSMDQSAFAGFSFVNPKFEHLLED

Structure (SMILES) | target or system | assay | system | conditions | scale | quantity | result
COc1ccc(CCNC(=O)c2cc(Nc3ccccc3)nc3ccccc23)cc1OC | Vero-E6 | CellTiter-Glo ATP |  | 72 h, retest 8-point duplicates | baseline: DMSO 0%, hyamine -100%, more negative, more toxic | maximum response | -10.9%
CN1CC[C@@H](c2c(O)cc(O)c3c(=O)cc(-c4ccc(C(F)(F)F)cc4Cl)oc23)[C@@H]1CO |  | measured: Hyperglycemia | relapsed B-cell malignancies or AML | oral, 100 mg, grade 3-4, continuous dosing |  | patients with adverse event | 12.5%
COc1cc(Nc2ncc(F)c(Nc3ccc4c(n3)NC(=O)C(C)(C)O4)n2)cc(OC)c1OC | NR3C1 (Homo sapiens, UniProt P04150) |  |  |  |  | IC50 | > 10 µM
C[C@H]1CN(c2n[nH]c3nc(N[C@H]4CC[C@H](NS(=O)(=O)CCC(F)(F)F)CC4)ncc23)CCO1 | PRKCD (Homo sapiens, UniProt Q05655) | inhibitor, Kinobeads competition profiling |  | 20 µM | baseline: vehicle | relative abundance | 1.08
CC(C)C[C@@H]1NC(=O)[C@H](CC(C)C)NC(=O)[C@H](Cc2c[nH]c3ccccc23)NC(=O)[C@H](CO)NC(=O)[C@H](Cc2c[nH]c3ccccc23)NC(=O)[C@@H]2CCCN2C(=O)[C@H](CC(C)C)NC(=O)[C@H](Cc2c[nH]cn2)NC(=O)[C@@H]2CCCN2C(=O)[C@H](CC(N)=O)NC(=O)[C@H](C)NC(=O)[C@H](Cc2ccc(O)cc2)NC(=O)[C@H](CS)NC(=O)[C@H](CCCCNC(=O)CN2CCN(CC(=O)O)CCN(CC(=O)O)CCN(CC(=O)O)CC2)NC1=O [lutetium-177 labelled] |  |  | Balb/c mouse, female, 4T1 tumour, spleen | intravenous, 3.7 MBq, 24 h |  | tissue uptake | 0.04 %ID
Cc1ccc(Nc2ccnc(N3CCCC3C(=O)NCCCc3ccccc3)n2)cc1 (stereo not drawn) | Vero-E6 | CellTiter-Glo ATP |  | concentration not given, 72 h, first round 5-point | baseline: DMSO 0%, hyamine -100%, more negative, more toxic | cytotoxicity efficacy | 0%
CCCC(C(=O)c1ccc2c(c1)OCO2)N1CCCC1.Cl (racemic) |  | LC-MS/MS | rat, trunk blood plasma | subcutaneous, 4 mg/kg, 240 min |  | plasma concentration | 36.4 ± 5.4 ng/mL
COc1ccc2c(Sc3ccccc3)c(C(=O)NCCCN3CCCCC3)[nH]c2c1 | Vero-E6 | CellTiter-Glo ATP |  | concentration not given, 72 h, second round 5-point | baseline: DMSO 0%, hyamine -100%, more negative, more toxic | cytotoxicity efficacy | -17.1%
O=C1c2c(O)c(=O)ccn2N([C@@H]2c3ccccc3SCc3c2ccc(F)c3F)[C@@H]2COCCN12 |  |  | BALB/c mice, plasma | oral, 50 mg/kg baloxavir marboxil, 2 h |  | plasma concentration | 284 ng/mL
CO[C@H]1C[C@@H]2CC[C@@H](C)[C@@](O)(O2)C(=O)C(=O)N2CCCC[C@H]2C(=O)O[C@H]([C@H](C)C[C@@H]2CC[C@@H](OC(=O)NCCOCCOCCOCCOCCOCCOCCOCCOCCC(=O)N3CCc4cc(Cn5nc(-c6ccc7oc(N)nc7c6)c6c(N)ncnc65)ccc4C3)[C@H](OC)C2)C[C@@H](O)[C@H](C)/C=C(\C)[C@@H](O)[C@@H](OC)C(=O)[C@H](C)C[C@H](C)/C=C/C=C/C=C/1C |  | phase 1 dose escalation | advanced solid tumour patients | intravenous, 12 mg weekly, any grade |  | any TRAE incidence | 75%
Oc1ccc2c3c1O[C@H]1[C@@H](O)CC[C@@]4(O)[C@@H](C2)N(CC2CCC2)CC[C@]314 | G-protein coupled receptor 146 (GPR146, Homo sapiens, UniProt Q96CH1) | β-arrestin recruitment, TANGO luminescence, measured: GPR146 |  | concentration not given | baseline: basal luminescence | log2 fold change | 0.2
COc1cc2c(Oc3ccc4[nH]c(C)cc4c3F)ccnc2cc1OCC1(N)CC1 |  |  | paediatric recurrent refractory sarcoma | 8 mg/kg |  | grade 3 Anorexia | 0%
CC(=O)N1CCC(C(=O)N2CCN3C(=O)c4cc(-c5ccccc5)ccc4NC(=O)C3C2)CC1 (stereo not drawn) | Escherichia coli |  | WP2 uvrA | 5000 µg/plate, with: without S9 | baseline: vehicle control | revertant fold increase | 0.9
O=C(c1ccc(F)c(F)c1Nc1ccc(I)cc1F)N1CC(O)([C@@H]2CCCCN2)C1 |  |  | patients aged sample A to sample B years | oral, dose not given |  | related AE dose modification | 29%
CC(=O)c1c(C)c2cnc(Nc3ccc(C4CCN(CCS(C)(=O)=O)CC4)cn3)nc2n(C2CCCC2)c1=O |  |  | human, plasma | oral, 25 mg once daily, day 1, single dose |  | MRT | 6.16 h
CC[C@H](C)[C@@H]1NC(=O)[C@@H]2CCCN2C(=O)[C@H](CC(C)C)NC(=O)[C@H](CC(C)C)NC(=O)CNC(=O)[C@@H](NC(=O)[C@@H](NC(=O)[C@H](CC(=O)O)NC(=O)CNC(=O)[C@@H](NC(=O)[C@H](C)NC(=O)CNC(=O)[C@H](CCCCN)NC(=O)[C@H](CC(C)C)NC(=O)[C@H](CC(C)C)NC(=O)[C@H](CCCCN)NC(=O)CNC(=O)[C@@H](NC(=O)[C@@H](N)CC(C)C)C(C)C)C(C)C)C(C)C)CSSC[C@@H](C(=O)O)NC1=O |  | RNA-seq, measured: Ccdc88b | mouse, traumatic brain injury model, frontal cortex and hippocampus | dose not given | baseline: TBI alone | log2 fold change | -2.2
CN/C(=N\[N+](=O)[O-])NCc1cnc(Cl)s1 |  |  | soil | 0 days, nominal 0.37 |  | recovery | 65%
O=C(NCc1ccccc1Cl)C1CCCN(Cc2cccc(-c3ccc(F)cc3F)c2)C1 (stereo not drawn) | Vero-E6 | CellTiter-Glo ATP |  | 72 h, retest 8-point duplicates | baseline: DMSO 0%, hyamine -100%, more negative, more toxic | maximum response | -18.1%
COc1cc(CCC[P+](c2ccccc2)(c2ccccc2)c2ccccc2)c(OC)c2c1OCO2.[I-] | COLO 205 | SRB |  |  |  | LC50 | -4.73 log M
Cc1ccc(C)c(Nc2cc(C(=O)NCCCN(C)C3CCCCC3)c3ccccc3n2)c1 | Vero-E6 | CellTiter-Glo ATP |  | concentration not given, 72 h, second round 5-point | baseline: DMSO 0%, hyamine -100%, more negative, more toxic | cytotoxicity efficacy | -29.8%
[Cl-].[Cl-].[Pt+2].[Ru+2].c1ccc(-c2nc3ccccc3nc2-c2ccccn2)nc1.c1cnc2c(c1)ccc1cccnc12.c1cnc2c(c1)ccc1cccnc12 | Danio rerio |  | embryos | 90 µM, 12 h |  | survival rate | 60 ± 3%
COc1ccc(N2C(=O)N(c3c(C)cccc3Cl)Cc3cnc(Nc4ccc(C5CCN(C)CC5)cc4OC)nc32)nc1 | PTK2 (Homo sapiens, UniProt Q05397) | kinase activity, inhibitor |  | 0.5 µM, kinase FAK |  | inhibition | 17%
CCCC(C(=O)c1ccc(O)c(OC)c1)N1CCCC1 (stereo not drawn) |  | LC-MS/MS | rat, trunk blood plasma | subcutaneous, 2 mg/kg MDPV, 40 min |  | plasma concentration | 50 ± 5.9 ng/mL
O=C(c1ccc(Cl)cc1)N1CCN2C(=O)N(OC(=O)N3CCOc4ccccc43)C(=O)C2C1 (stereo not drawn) | LYPLAL1 (Homo sapiens, UniProt Q5VWZ2) | MS-based ABPP | SW-620 conditioned medium | 10 µM, 1 h, 37 °C | baseline: compound over DMSO, lower = more inhibition | mean protein ratio | 1.04

Repeated from above:
Structure (SMILES) | target or system | assay | system | conditions | scale | quantity | result
O=C(NCc1ccccc1Cl)C1CCCN(Cc2cccc(-c3ccc(F)cc3F)c2)C1 (stereo not drawn) | Vero-E6 | CellTiter-Glo ATP |  | 72 h, retest 8-point duplicates | baseline: DMSO 0%, hyamine -100%, more negative, more toxic | maximum response | -18.1%
COc1cc(CCC[P+](c2ccccc2)(c2ccccc2)c2ccccc2)c(OC)c2c1OCO2.[I-] | COLO 205 | SRB |  |  |  | LC50 | -4.73 log M
